Measurements gathered from unrelated publications.
A part holds a random share of what one study measured.

Set 1
Target: Histone acetyltransferase KAT6A, winged helix 2, GST fusion (KAT6A, Homo sapiens, UniProt Q92794, residues 85-181)
Method: protein binding microarray
Form: double-stranded DNA, one strand shown
Matrix: in vitro
Concentration: not given
Notes: 8-mer, flanks averaged, mean of 2 arrays, mostly near background
Relative to: not given
Reading: higher = stronger binding
Construct (chain): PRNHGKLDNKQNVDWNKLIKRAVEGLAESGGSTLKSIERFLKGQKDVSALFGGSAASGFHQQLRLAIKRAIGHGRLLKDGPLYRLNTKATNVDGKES
The E-score of `GGTGACAA` is reported as 0.149.
`CGACCGAG` gave an E-score of 0.119.
The E-score of `ACTGGGAG` is reported as -0.0621.
With `GGCATGCC` the E-score was 0.0753.
The E-score of `CGCTCGAC` is reported as -0.154.
The E-score of `CACTAGTA` is reported as -0.163.
The E-score of `CGCAACCG` is reported as 0.305.
`TCTCTTCA` has an E-score of -0.00988.
`CATGTAAA` gave an E-score of -0.189.
With `ACCGTGGC` the E-score was 0.0197.
The E-score of `ACTCGCCT` is reported as 0.0888.
`CCGTCTTA` gave an E-score of -0.195.
With `CAGGACCA` the E-score was 0.0545.
`AAAGGTGT` gave an E-score of -0.206.
`TCAGCGGA` gave an E-score of 0.154.
The E-score of `AGGGGCGG` is reported as 0.19.
`TATTTGAA` has an E-score of 0.0392.
For `CATTGACG`, the E-score was -0.0389.
With `AGTAGGCG` the E-score was 0.00517.
`CTCTATAA` gave an E-score of -0.0658.
`AGGTCCTC` has an E-score of -0.0913.
`AATAAAGA` has an E-score of 0.116.
`ACCGCCCG` has an E-score of 0.192.
`CTGATTGA` gave an E-score of -0.0297.
With `AGCTACCT` the E-score was -0.00969.

Set 2
Target: RING finger protein unkempt homolog, zinc fingers 1-6, GST-SBP tag (UNK, Homo sapiens, UniProt Q9C0B0, residues 30-357)
Method: RNA Bind-n-Seq
Form: RNA
Matrix: in vitro
Concentration: not given
Notes: RNA with constant flanks, ends assumed
Relative to: input RNA pool
Reading: higher = stronger binding
Construct (chain): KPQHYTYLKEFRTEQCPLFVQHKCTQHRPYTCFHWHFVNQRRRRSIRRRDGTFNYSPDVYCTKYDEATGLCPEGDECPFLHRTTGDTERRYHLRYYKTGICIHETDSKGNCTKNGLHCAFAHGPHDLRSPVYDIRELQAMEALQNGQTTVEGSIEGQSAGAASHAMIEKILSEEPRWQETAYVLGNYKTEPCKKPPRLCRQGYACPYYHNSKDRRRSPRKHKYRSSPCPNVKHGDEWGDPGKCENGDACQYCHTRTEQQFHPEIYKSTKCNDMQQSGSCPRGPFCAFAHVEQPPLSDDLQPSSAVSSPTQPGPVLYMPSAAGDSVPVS
`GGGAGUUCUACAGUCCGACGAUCAAGUGGUUACGGGAAAUUCUGAUCUGCAGAAAUAAAUUUCUUCUUAAAAAUAAGCAGGCAGACCGAAGCUCCUGUCAUUCUCUCUACCUUUAUGGAGUAGGAUGUGAAAUGUCUGCUACUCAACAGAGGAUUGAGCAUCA` gave a bound/input enrichment of 0.194 ratio.
With `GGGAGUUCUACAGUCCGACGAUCACUGGUUUUGGAUUAGGAAUUGUUUUCUCACUUACCUUCUUUAAAAGAAGAAUGUGGCCAUCCGCCUUCGGUUCUGGCAUGGGAUUAGGAAUGGCUUAUUCCAACUGUCAGCAUGAUUUCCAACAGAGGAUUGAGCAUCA` the bound/input enrichment was 0.317 ratio.
`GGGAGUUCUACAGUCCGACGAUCGGGGACCCGGAGCUGCAGCCCAUCCGGAGCUAUGAGAUCGCCAGCUUGGUCCGCACACUCUUCCGGCUGUCGUCUGCCAUCAACCACAGAUUUGCAGGACAGAUGGCGGCUCUGUGUUCCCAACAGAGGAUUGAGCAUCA` gave a bound/input enrichment of 0.122 ratio.
With `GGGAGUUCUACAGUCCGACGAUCCCAACGUUAGAAGCAGCCUGGCCUCAUCUACAGCUUGUUUAUGAAUUUUUCUUAAGAUUUUCCGAGUCUCCAGAUUUCCAACCUAAUAUAGCGAAGAAAUAUAUUGAUCAGAAGUUUGUACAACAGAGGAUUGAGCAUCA` the bound/input enrichment was 1.46 ratio.
For `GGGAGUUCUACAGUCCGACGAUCAAUUUUUUUGGUAUUUUUUUAAACGUUCGUGGAUGAAUGCCAACUUUCAGACGGAGCCCACUCCGCUUGUCCACAUGUAUCUCAAUGCCAACCCUCCAUUUUUCCUCUCCAGAUAUUUUUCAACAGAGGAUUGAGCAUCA`, the bound/input enrichment was 0.526 ratio.
For `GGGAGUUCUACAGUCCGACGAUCCAGAACCUACCUUCUGGAUCAUCACGUGUUGGAGCCAUUAAGCUUACCUACAUUUCAAAGGUCCGCGAUGCUACUAAGCUAAGGCCAAAGGCGGAGUUCUGUUUUGUUAUGAAUGCAGGACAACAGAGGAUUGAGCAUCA`, the bound/input enrichment was 0.0809 ratio.
With `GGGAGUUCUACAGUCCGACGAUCCGUGAAACCUAUUCUUAGCUCACAGGCCAUGGAGAAGCUGGUGGGGACCAGACCCAGCUCCUCCGCUGGCUGGGCUGGGGAGGGGGUAGUGACAGUGGCAGCUGCUACUCACUGCUCAGUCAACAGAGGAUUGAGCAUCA` the bound/input enrichment was 0.0643 ratio.
`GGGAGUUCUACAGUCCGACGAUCUCACUUUGUGAUUAUUUCACUUUAGAUGCUGAUGAUUUGUUUUUGUAUUUUUAAUGGGGGCCGCAGCUGGACUACCCACGUUCUCACACCCACCGUCCGCCCUGCUCCUCCCUGGCUGCCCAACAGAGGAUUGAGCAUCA` gave a bound/input enrichment of 0.277 ratio.
`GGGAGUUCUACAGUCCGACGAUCGGACCAUAAUCAUGGUGGACAUGAUGGACUUGCCCAGGUCGCGCAUCAACGCCGGCAUGCCCGCUCAAUUCAUCGACAAGCCUGUCUGCUUCGUAGGGAGGCUGGAAAAGAUUCAUCCCACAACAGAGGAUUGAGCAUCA` has a bound/input enrichment of 0.0807 ratio.
With `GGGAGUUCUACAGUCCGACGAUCGAGAUGCUAGCACACAGGGCAGUCCUGGCUUGCUGUAGCCCCUAUCUAUUUGAAAUCUUCAACCGUGACAGUGACCCUCAUGGAGUUUCUCAUGUGAAGUUGGAUGAUCUCAAUCCAGAACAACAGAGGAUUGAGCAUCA` the bound/input enrichment was 0.481 ratio.
`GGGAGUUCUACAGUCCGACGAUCAAACUGUUCUACAGUGCAAAGAACACCAGCGAGCUCCUGUUUAAGAAAGAUAUCCUCGACUCCGUACAUGAAUUCCCUGAGAAGAUUUCUUGCAGUUUUCAUGUUACAAAACAGACAGCACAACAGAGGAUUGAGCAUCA` gave a bound/input enrichment of 0.139 ratio.

Set 3
Target: Interferon regulatory factor 5, full length, phosphomimetic (IRF5, Homo sapiens, UniProt Q13568-2, residues 1-514, S451D/S453D/S456D/S462D)
Method: protein-binding microarray
Form: double-stranded DNA, one strand shown
Matrix: in vitro
Concentration: 940 nM top
Notes: 60-bp whole probe
With: salmon DNA 0.4 mg/ml
Relative to: random background probes
Reading: higher = stronger binding
Constant ends, left off below: GCCTAGCAC … GTCTTGATTCGCTTGACGCTGCTG
`TTAGATCTTAGTTTCGATTAGTGCTAG` — result for “fitted relative affinity”: 8.58 z-score.
`GACGATATCGGGTTTCTAGACGTGCTA` — result for “fitted relative affinity”: 0.265 z-score.
`TCAGCTATTTTATATGCTACTGTGCTA`: “fitted relative affinity” -0.0363 z-score.
For `AATGGAACAAATATGTTTATGTGCTAG`, “fitted relative affinity” read -0.123 z-score.
`TCATCTACAGGGTTTCACACTGTGCTA`: “fitted relative affinity” 0.705 z-score.
For `GACGGACTGCTACTGCTGATGTGCTAG`, “fitted relative affinity” read -0.334 z-score.
For `GATGGTCTCGGTTTCGGGACGTGCTAG`, “fitted relative affinity” read 7.08 z-score.
`GACGGACTGGGGTATGGGGACGTGCTA`: “fitted relative affinity” -0.226 z-score.
`TTAGGACTGGGACAGGGTTAGTGCTAG` — result for “fitted relative affinity”: -0.832 z-score.
`GACGATTTCAGTTTCGATACGTGCTAG` — result for “fitted relative affinity”: 8.85 z-score.
`AACGGTATCGGTATCGGGACGTGCTAG` — result for “fitted relative affinity”: 9.03 z-score.
For `GACGGTTTCGACCTTCGGGACGTGCTA`, “fitted relative affinity” read 6.79 z-score.
`GACGGTGTCCTTTTCCTGACGTGCTAG`: “fitted relative affinity” 0.305 z-score.
`TTAGATATCACACTGGATTAGTGCTAG` — result for “fitted relative affinity”: -0.269 z-score.
`TTAGGTCTCGGTATCGATTAGTGCTAG` — result for “fitted relative affinity”: 6.84 z-score.
`GACGATATCAGTTTCCAGACGTGCTAG` — result for “fitted relative affinity”: 0.37 z-score.
`TACTTTCTATGTCTGTTTTTGTGCTAG` — result for “fitted relative affinity”: 4.22 z-score.
`CAGAAGCCAGAGAGGACAGGGTGCTAG`: “fitted relative affinity” -0.707 z-score.
`TCACATCTGTCATGTTTGACTGTGCTA` — result for “fitted relative affinity”: -0.0318 z-score.
For `TTAGGAATGGACTTTCGGTTAGTGCTA`, “fitted relative affinity” read 2.37 z-score.
For `GACGATCTCAGAATCGAGACGTGCTAG`, “fitted relative affinity” read 0.0384 z-score.
Under “fitted relative affinity”, `TTAAGTATCGGTATCGGTTAGTGCTAG` is recorded as 11.3 z-score.
`TCAATGTTACATTTATAACTGTGCTAG` — result for “fitted relative affinity”: -0.227 z-score.

Set 4
Target: PABPC1L2, full length, GST fusion (mouse, UniProt A0ABA7IW68)
Method: RNAcompete
Form: RNA
Matrix: in vitro
Concentration: 20 nM
Notes: 7-mer, probes averaged, single round
Relative to: mean of 7-mers
Reading: higher = stronger binding
Residues (chain): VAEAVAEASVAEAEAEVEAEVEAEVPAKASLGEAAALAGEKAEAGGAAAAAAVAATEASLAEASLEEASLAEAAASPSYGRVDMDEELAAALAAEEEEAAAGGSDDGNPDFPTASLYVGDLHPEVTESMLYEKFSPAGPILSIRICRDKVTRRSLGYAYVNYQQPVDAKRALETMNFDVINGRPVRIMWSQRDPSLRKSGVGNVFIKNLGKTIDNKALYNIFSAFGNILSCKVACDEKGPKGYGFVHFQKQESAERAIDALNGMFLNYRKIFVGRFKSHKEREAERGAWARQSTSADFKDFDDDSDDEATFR
The 7-mer Z-score of `UCUGUUU` is reported as -0.528.
With `GAAAUUU` the 7-mer Z-score was 0.354.
With `GUGAGCU` the 7-mer Z-score was -0.226.
For `UACCCCU`, the 7-mer Z-score was -0.447.
The 7-mer Z-score of `GUAACCA` is reported as -0.0609.
With `CAAUUUA` the 7-mer Z-score was 0.468.
For `AGGGUCC`, the 7-mer Z-score was 0.00979.
With `UGGAAGC` the 7-mer Z-score was 0.0261.
The 7-mer Z-score of `GUGUGCA` is reported as 0.0551.
`AGGAGCC` has a 7-mer Z-score of -0.0301.
`CCUUCAC` gave a 7-mer Z-score of -0.376.
With `UGCGCGA` the 7-mer Z-score was -0.255.
The 7-mer Z-score of `UUCUCUC` is reported as -0.351.

Mixed results
For `PhoQ, residues 284 288 289 292 302 303 SSTLSG`, the fold induction was 2.83 (PhoP, residues 12 14 15 18 19 LHSVW (Escherichia coli, UniProt P23836); Sort-seq, measured: YFP reporter; E. coli; PhoQ-PhoP variant library, with: 10 µM Mg2+; relative to: high Mg2+ state, higher = stronger signaling).

For quick reference, copied from above (set 3):
For `GATGGTCTCGGTTTCGGGACGTGCTAG`, “fitted relative affinity” read 7.08 z-score.
`GACGGACTGGGGTATGGGGACGTGCTA`: “fitted relative affinity” -0.226 z-score.
`TTAGGACTGGGACAGGGTTAGTGCTAG` — result for “fitted relative affinity”: -0.832 z-score.
`GACGATTTCAGTTTCGATACGTGCTAG` — result for “fitted relative affinity”: 8.85 z-score.
`AACGGTATCGGTATCGGGACGTGCTAG` — result for “fitted relative affinity”: 9.03 z-score.
For `GACGGTTTCGACCTTCGGGACGTGCTA`, “fitted relative affinity” read 6.79 z-score.
`GACGGTGTCCTTTTCCTGACGTGCTAG`: “fitted relative affinity” 0.305 z-score.
`TTAGATATCACACTGGATTAGTGCTAG` — result for “fitted relative affinity”: -0.269 z-score.
`TTAGGTCTCGGTATCGATTAGTGCTAG` — result for “fitted relative affinity”: 6.84 z-score.
`GACGATATCAGTTTCCAGACGTGCTAG` — result for “fitted relative affinity”: 0.37 z-score.
